Measured values gathered from unrelated publications.
Compare with care: the assays were run in different laboratories.

Structure (SMILES) = COCC1CN(C2CCN(c3cc(OC)c(Nc4ncc(Br)c(Nc5ccc6c(c5P(C)(C)=O)OCCO6)n4)cc3C)CC2)C1; test system = PC-9 EGFR Del19/T790M/C797S, mouse xenograft; conditions = oral, dose not given, once daily; measurement = body weight change; result = not toxic
Structure (SMILES) = CC[C@H](C)[C@H](NC(=O)[C@H](CC(C)C)NC(=O)[C@H]1CCCN1C(=O)[C@@H](CO)NC(=O)[C@H](N)CC(C)C)C(=O)N[C@@H](Cc1ccccc1)C(=O)N[C@H](C(=O)N[C@H](C(=O)N[C@H](C(=O)N1CCC[C@H]1C(=O)N[C@@H](CC(=O)O)C(=O)N[C@@H](C(=O)O)[C@H](C)O)[C@@H](C)O)[C@@H](C)O)C(C)C; test system = C57BL/6 mouse, tumour-bearing; conditions = intraperitoneal, 2 or 6 mg/kg daily, 14 days; how to read = baseline: negative control; measurement = body weight; result = no effect
Structure (SMILES) = COc1ccc2sc3c(c2c1)SCCNC3=O; test system = mouse, CFPAC-1 xenograft; conditions = intravenous, 37.5 and 25 mg/kg/day, daily for 4 days; measurement = body weight; result = no effect
Structure (SMILES) = CCCCCCCCCn1cc(C(N)(CO)CO)nn1; test system = APP/PS1 mouse; conditions = oral, up to 10 mg/kg; measurement = body weight; result = no effect
Structure (SMILES) = C=CC(=O)N1C[C@H](C)N(c2nc(OC[C@@]34CCCN3C[C@H](F)C4)nc3c(F)c(-c4ccc(F)c5sc(N)c(C#N)c45)c(C(F)(F)F)cc23)C[C@H]1C; test system = mouse, MIA PaCa-2 xenograft; conditions = oral, 0.1 to 10 mg/kg daily, 28 days, tolerability; measurement = body weight; result = not toxic
Structure (SMILES) = N[C@@H](CCC(=O)N[C@@H](CS[Se]Cc1ccc(-c2cc(C(F)(F)F)nn2-c2ccc(S(N)(=O)=O)cc2)cc1)C(=O)NCC(=O)O)C(=O)O; test system = athymic nude mouse xenograft; conditions = i.p., 0.127 µmol alternate days, 4 weeks; measurement = body weight; result = no effect
Structure (SMILES) = N=C(N)NCCC[C@H](NC(=O)[C@H](CCCNC(=N)N)NC(=O)[C@H](CS)NC(=O)[C@H](CC(N)=O)NC(=O)[C@@H]1CCCN1C(=O)[C@H](CC(N)=O)NC(=O)[C@H](CCCCN)NC(=O)[C@H](CCCCN)NC(=O)[C@@H](N)CCCNC(=N)N)C(=O)N[C@@H](Cc1c[nH]cn1)C(N)=O; test system = BALB/c nude mouse xenograft; conditions = ip, 1 mg/kg three times weekly, 5 weeks; measurement = body weight; result = no effect
Structure (SMILES) = CCCCCCCCC=CCCCCCCCC(=O)OCC1OC(n2ccc(N)nc2=O)C(F)(F)C1O (centres unmarked); test system = female nude mouse, colon xenograft, patient-derived colon tumour; conditions = oral, 100 mg/kg, dosed days 1 and 8; measurement = body weight loss; result = 4%

Excerpt of the above:
Structure (SMILES) = COc1ccc2sc3c(c2c1)SCCNC3=O; test system = mouse, CFPAC-1 xenograft; conditions = intravenous, 37.5 and 25 mg/kg/day, daily for 4 days; measurement = body weight; result = no effect
